Measured values gathered from unrelated publications.
Protocols differ between the studies behind these lines. ± gives the spread as reported.
Organism: HIV-1

| SMILES | assay | system | setting | IC50 |
| --- | --- | --- | --- | --- |
| COc1ccc2c(c1)OCCCC=CCCCCN(CC(O)C(Cc1ccccc1)NC(=O)OC1COC3OCCC13)S2(=O)=O (mixture of isomers) | viral replication, p24 Gag production | PHA-stimulated PBMC, ERS104pre wild-type X4 |  | 0.007 ± 0.002 µM |
| COC(=O)c1ccccc1NC(=O)Cc1cn(OC)c2ccccc12 | viral replication | HEK293T |  | 3.37 ± 0.45 µM |
| Cc1nc([C@H](NC(=O)c2ccc(-c3ccc(Cl)cc3)[nH]2)[C@H]2CCCCN2)sc1CO | cell-cell transmission, item: p24 | H9 and Ghost X4/R5, IIIB CXCR4-tropic |  | 2 µM |
| CC[C@H](C)[C@H](N)C(=O)N[C@@H](CO)C(=O)N[C@@H](Cc1ccccc1)C(=O)N[C@@H]1CSCc2ccc(cc2)-c2ccc(cc2)CSC[C@@H](C(=O)N[C@@H](CCC(=O)O)C(=O)N[C@@H](CO)C(=O)NCC(=O)N[C@@H](CO)C(N)=O)NC(=O)[C@H](Cc2ccc(O)cc2)NC(=O)[C@H](Cc2ccc(O)cc2)NC(=O)[C@H](CC(=O)O)NC(=O)[C@H](CC(C)C)NC(=O)[C@H](CC(C)C)NC(=O)[C@H](CCC(=O)O)NC1=O | viral entry, single-cycle pseudovirus | Env PVO, subtype B |  | 3.5 ± 0.1 µM |
| CC(=O)N[C@@H](CC(C)C)C(=O)N[C@@H](CO)C(=O)N[C@@H](CC(=O)O)C(=O)N[C@@H](CO)C(=O)N1CCC[C@H]1C(=O)N[C@@H](CC(N)=O)C(=O)NCC(=O)N1CCC[C@H]1C(=O)N[C@@H](Cc1c[nH]c2ccccc12)C(=O)N[C@H](C(=O)N[C@@H](Cc1c[nH]c2ccccc12)C(=O)N[C@H](C(=O)N1CCC[C@H]1C(=O)N[C@@H](C)C(=O)N[C@@H](Cc1ccccc1)C(=O)N[C@@H](CO)C(=O)N[C@@H](CCC(N)=O)C(=O)N[C@@H](C)C(=O)N[C@H](C(=O)NCC(=O)O)C(C)C)C(C)C)C(C)C | viral replication, inhibitor, SEAP reporter | CEMx174 SEAP reporter, NL4-3 | 3 days | > 60 µM |
| CC(=O)N[C@@H](Cc1ccc(O)cc1)C(=O)N[C@@H](CO)C(=O)N[C@@H](CO)C(=O)N[C@@H](Cc1c[nH]cn1)C(=O)N[C@@H](Cc1ccccc1)C(=O)N1CCC[C@H]1C(=O)N[C@@H](Cc1ccc(O)cc1)C(=O)N[C@@H](CO)C(=O)N[C@@H](CCC(N)=O)C(=O)N[C@@H](Cc1ccc(O)cc1)C(=O)N[C@@H](CCC(N)=O)C(=O)N[C@@H](Cc1ccccc1)C(=O)N[C@@H](Cc1c[nH]c2ccccc12)C(=O)N[C@@H](CCCCN)C(N)=O | viral entry | TZM-bl, YU2 (R5) pseudovirus | 48 h | 179 µM |
| CC(=O)[O-].CN1CCCN2CCN(CCCN(Cc3ccccc3)CC2)CC1.F[P-](F)(F)(F)(F)F.[Co+2] | viral replication | MT-4, IIIB | 5 d | > 100 µM |
| CC(=O)N[C@@H](CS)C(=O)N[C@@H](CO)C(=O)N[C@@H](CO)C(=O)N[C@@H](Cc1c[nH]cn1)C(=O)N[C@@H](Cc1ccc(O)cc1)C(=O)N1CCC[C@H]1C(=O)N[C@@H](Cc1ccccc1)C(=O)N[C@@H](CO)C(=O)N[C@@H](CCC(N)=O)C(=O)N[C@@H](Cc1ccc(O)cc1)C(=O)N[C@@H](CCC(N)=O)C(=O)N[C@@H](Cc1ccccc1)C(=O)N[C@@H](Cc1c[nH]c2ccccc12)C(=O)N[C@@H](CCCCN)C(N)=O | viral entry | TZM-bl, YU2 (R5) pseudovirus | 48 h | 10.3 µM |
| CC(C)C[C@@H](N)C(=O)NCC(=O)N[C@H](C)C(=O)N[C@H](CO)C(=O)N[C@H](Cc1c[nH]c2ccccc12)C(=O)N[C@H](Cc1c[nH]cn1)C(=O)N[C@H](CCCNC(=N)N)C(=O)N1CCC[C@@H]1C(=O)N[C@H](CC(=O)O)C(=O)N[C@H](CCCCN)C(=O)N[C@H](CSSC[C@@H](NC(=O)[C@@H](CCCCN)NC(=O)[C@@H](CC(=O)O)NC(=O)[C@H]1CCCN1C(=O)[C@@H](CCCNC(=N)N)NC(=O)[C@@H](Cc1c[nH]cn1)NC(=O)[C@@H](Cc1c[nH]c2ccccc12)NC(=O)[C@@H](CO)NC(=O)[C@@H](C)NC(=O)CNC(=O)[C@H](N)CC(C)C)C(=O)N[C@H](C)C(=O)N[C@H](CC(C)C)C(=O)NCC(=O)N[C@H](Cc1ccc(O)cc1)C(=O)N[C@H](CCC(N)=O)C(=O)N[C@H](CCCCN)C(=O)N[C@H](CCCNC(=N)N)C(=O)N1CCC[C@@H]1C(=O)N[C@H](CC(C)C)C(=O)N1CCC[C@@H]1C(N)=O)C(=O)N[C@H](C)C(=O)N[C@H](CC(C)C)C(=O)NCC(=O)N[C@H](Cc1ccc(O)cc1)C(=O)N[C@H](CCC(N)=O)C(=O)N[C@H](CCCCN)C(=O)N[C@H](CCCNC(=N)N)C(=O)N1CCC[C@@H]1C(=O)N[C@H](CC(C)C)C(=O)N1CCC[C@@H]1C(N)=O | single-cycle infectivity, p24 immunoperoxidase focus | HeLa cells expressing CD4, HXBc2 | 48 h | 10 ± 0.49 µM |

A few entries again:
| SMILES | assay | system | setting | IC50 |
| --- | --- | --- | --- | --- |
| CC(C)C[C@@H](N)C(=O)NCC(=O)N[C@H](C)C(=O)N[C@H](CO)C(=O)N[C@H](Cc1c[nH]c2ccccc12)C(=O)N[C@H](Cc1c[nH]cn1)C(=O)N[C@H](CCCNC(=N)N)C(=O)N1CCC[C@@H]1C(=O)N[C@H](CC(=O)O)C(=O)N[C@H](CCCCN)C(=O)N[C@H](CSSC[C@@H](NC(=O)[C@@H](CCCCN)NC(=O)[C@@H](CC(=O)O)NC(=O)[C@H]1CCCN1C(=O)[C@@H](CCCNC(=N)N)NC(=O)[C@@H](Cc1c[nH]cn1)NC(=O)[C@@H](Cc1c[nH]c2ccccc12)NC(=O)[C@@H](CO)NC(=O)[C@@H](C)NC(=O)CNC(=O)[C@H](N)CC(C)C)C(=O)N[C@H](C)C(=O)N[C@H](CC(C)C)C(=O)NCC(=O)N[C@H](Cc1ccc(O)cc1)C(=O)N[C@H](CCC(N)=O)C(=O)N[C@H](CCCCN)C(=O)N[C@H](CCCNC(=N)N)C(=O)N1CCC[C@@H]1C(=O)N[C@H](CC(C)C)C(=O)N1CCC[C@@H]1C(N)=O)C(=O)N[C@H](C)C(=O)N[C@H](CC(C)C)C(=O)NCC(=O)N[C@H](Cc1ccc(O)cc1)C(=O)N[C@H](CCC(N)=O)C(=O)N[C@H](CCCCN)C(=O)N[C@H](CCCNC(=N)N)C(=O)N1CCC[C@@H]1C(=O)N[C@H](CC(C)C)C(=O)N1CCC[C@@H]1C(N)=O | single-cycle infectivity, p24 immunoperoxidase focus | HeLa cells expressing CD4, HXBc2 | 48 h | 10 ± 0.49 µM |
| Cc1nc([C@H](NC(=O)c2ccc(-c3ccc(Cl)cc3)[nH]2)[C@H]2CCCCN2)sc1CO | cell-cell transmission, item: p24 | H9 and Ghost X4/R5, IIIB CXCR4-tropic |  | 2 µM |
